Results collected from several papers.
Compare with care: the assays were run in different laboratories. ± gives the spread as reported. Values after ≈ are worked out from the molar mass of the structure shown.

CNCc1ccc(-c2[nH]c3cc(F)cc4c3c2CCNC4=O)cc1
Cmax (human, fed high-fat meal, plasma; oral, 300 mg, cycle 1 day 1, single dose, arithmetic mean): 502 ng/mL

NCCCn1c2c(c3ccc(N)cc3c1=O)C(=O)c1ccccc1-2
tissue concentration (Sprague-Dawley rat, female, liver; oral gavage, 40 mg/kg/day, 3 h after last dose, dosed 3 days): 3720 ± 70 ng/g

Cn1ncc(Cl)c1-c1cc(C(=O)N[C@H](CN)Cc2ccc(F)c(F)c2)oc1Cl
effective half-life (human patients; oral, continuous once-daily dosing): ~67.2 h

CC(C)C[C@H](NC(=O)[C@H](CCCNC(=N)N)NC(=S)Nc1ccc(C[C@H]2CN(CC(=O)O)CCN(CC(=O)O)CCN2CC(=O)O)cc1)C(=O)N[C@@H](CC(N)=O)C(=O)N[C@H](C(=O)NCC(=O)NCC(=O)N[C@H](C(=O)N[C@@H](Cc1ccc(O)cc1)C(=O)N[C@@H](Cc1ccccc1)C(=O)N[C@@H](CC(C)C)C(=O)N[C@H](C(=O)N[C@H](C(=O)N[C@@H](CCCNC(=N)N)C(=O)N[C@@H](CCC(N)=O)C(=O)O)[C@@H](C)O)[C@@H](C)O)[C@@H](C)O)C(C)C [fluorine-18 labelled]
intact parent radiotracer (radio-HPLC; mouse (HepG2 tumour-bearing), liver; intravenous, 5.55 MBq, 1 h): 96.06 ± 0.54%

CN1CC[C@@H](NC(=O)Nc2ccc(C#N)cc2)C[C@@H]1c1nc2ccccc2[nH]1
AUC(0-inf), unbound (normal hepatic function, plasma; oral, 100 mg single dose, fasted, geometric mean): 845 ng·h/mL

CN1C(=O)C(C)(C)Oc2c(-c3cn(C)c(=O)c4[nH]ccc34)cc(S(C)(=O)=O)cc21
steady-state Tmax (human patients, plasma; oral, high-fat meal, median): 6 h

CC(C)(CC(=O)N1CCCC1)NCC(=O)N1C[C@@H](F)C[C@H]1C#N
AUC(0-t) at steady state (Chinese type 2 diabetes patients, plasma; oral, 100 mg once daily, multiple doses): 1480 ng·h/mL

Cn1c(-c2ccc(C(N)=O)cc2F)nnc1C(C)(C)Oc1c(F)cc(Cl)cc1F
half-life median (young non-Japanese adults, plasma; oral, 20 mg single dose, day 1, high-dose multiple-dose study): 15.4 h

CON
blood concentration (human, whole blood on ice; 120 min before centrifugation): 10.5 ng/mL

CCCOc1ccc([C@H]2CNC(=O)N2c2ccc3[nH]cnc3c2)cc1
effective half-life (human volunteers fasted, plasma; oral solution, 50 mg single dose, day 1, geometric mean): 2.25 h

COc1cc(/C=C/C(=O)CC(=O)/C=C/c2ccc(O)c(OC)c2)ccc1O
brain uptake ratio (I-125 label; C57BL/6J mouse, olfactory lobes; intranasal vs intraperitoneal, 10 µg/mouse IN, 100 µg/mouse IP, 24 h; reference: intranasal over intraperitoneal): 2.11

Cc1nc2cccc(OCC(C)(C)C(=O)NC(C)C)c2c(N)c1C(=O)O
Tmax range (Sprague-Dawley rat (both sexes), plasma; dietary, 30 to 100 mg/kg/day, day 7): 1.5 to 3 h

O=C1N=C(N2CCOCC2)CN1c1ccc(Cl)cc1
Tmax (beagle dog, both sexes, plasma; oral, 30 mg/kg, tablets, fasted, day 0): 2.27 h

Nc1ccc(S(=O)(=O)N2CCN(CC(=O)N[C@@H](Cc3cc(F)cc(F)c3)c3nc4ccccc4c(=O)n3-c3ccc(S(=O)(=O)N4CCOCC4)cc3)C(=O)C2)cc1
clearance (Sprague-Dawley rats; intravenous, 2 mg/kg): 60 mL/min/kg

CC(C)=CCC[C@](C)(O[C@@H]1O[C@H](CO)[C@@H](O)[C@H](O)[C@H]1O)[C@H]1CC[C@]2(C)[C@@H]1[C@H](O)C[C@@H]1[C@@]3(C)CC[C@H](O[C@@H]4O[C@H](CO)[C@@H](O)[C@H](O)[C@H]4O[C@@H]4O[C@H](CO)[C@@H](O)[C@H](O)[C@H]4O)C(C)(C)[C@@H]3CC[C@]12C
CL/F (Sprague Dawley rat, male, plasma; oral, 42 mg/kg, in red ginseng extract): 20 ± 3.33 mL/min/kg

CC(=O)N1CCC[C@H]1C(=O)N[C@@H](CCCNC(=N)N)C(=O)N[C@H](C(=O)N[C@@H](CCCNC(=N)N)C(=O)N[C@H](C(=O)N[C@@H](CCCNC(=N)N)C(=O)N[C@H](C(=O)N[C@@H](CC(=O)O)C(=O)N1CCC[C@H]1C(=O)N[C@@H](CCCNC(=N)N)C(=O)N[C@H](C(=O)N[C@@H](CC(=O)O)C(=O)N[C@H](C(=O)N[C@@H](CCCNC(=N)N)C(=O)N[C@H](C(=O)N[C@@H](CC(=O)O)C(=O)N1CCC[C@H]1C(N)=O)C(C)C)C(C)C)C(C)C)C(C)C)C(C)C)C(C)C
viscosity (rotational rheometry; 1% w/v aqueous solution; shear rate range 1-1000 s^-1): 1250 ± 31.2 Pa·s

CC(=O)C=Cc1ccc(O)c(O)c1
AUC(0-t) (male C57BL/6J mice, brain; oral, 200 mg/kg, 0 to 12 h, low-fat diet): 0.096 ± 0.009 nmol·min/g

CC1=C2C[C@H]3[C@@H](CC[C@@H]4C[C@H](NS(C)(=O)=O)CC[C@@]43C)[C@@H]2CC[C@@]2(C1)O[C@@H]1C[C@H](C)CN[C@H]1[C@H]2C
Tmax (patients, plasma; oral, 60 mg daily, day 22, cycle 1): 5.08 h

OC[C@H]1O[C@@H](c2ccc(Cl)c(Cc3ccc(O[C@H]4CCOC4)cc3)c2)[C@H](O)[C@@H](O)[C@@H]1O
plasma concentration (HPLC-MS/MS; healthy Chinese volunteers, fasting; oral, 10 mg tablet, 0.5 h): 103 ± 61 ng/mL

COc1cccc(N2CCN(C3=Nc4c(F)cccc4[C@H](CC(=O)O)N3c3cc(C(F)(F)F)ccc3OC)CC2)c1
volume of distribution (UHPLC-MS/MS; healthy women, plasma; intravenous infusion, 720 mg single dose, 60 min infusion, HPβCD formulation): 74.1 ± 32 L

C[C@](N)(Cc1ccc(O)c(O)c1)C(=O)O
solubility (static gravimetric method; supercritical CO2, 871.5 kg/m3; 5 h, 323 K, pressure 30 MPa): 369 µg/mL (≈ 1750 µM)

CN(C)C/C=C/C(=O)Nc1cc2c(Nc3ccc(F)c(Cl)c3)ncnc2cc1O[C@H]1CCOC1
half-life at steady state (human, plasma; oral, 40 mg once daily, day 27, geometric mean): 34 h

CO[C@H]1C[C@@H]2CC[C@@H](C)[C@@](O)(O2)C(=O)C(=O)N2CCCC[C@H]2C(=O)O[C@H]([C@H](C)C[C@@H]2CC[C@@H](O)[C@H](OC)C2)CC(=O)[C@H](C)/C=C(\C)[C@@H](O)[C@@H](OC)C(=O)[C@H](C)C[C@H](C)/C=C/C=C/C=C/1C
C24 (healthy human adults, blood; oral, 0.5 mg single dose, 24 h, with: ritonavir-containing 3D regimen): 5.59 ng/mL

C=CC(N)CCC(=O)O (stereo not drawn)
clearance (male Sprague-Dawley rat, plasma; oral, 1.0 mg/kg, formulation 2, with: infant formula 1500 mg/kg): 9.57 ± 0.317 mL/min/kg

N=C(N)c1ccc(CNC(=O)[C@@H]2CCN2C(=O)[C@H](NCC(=O)O)C2CCCCC2)cc1
plasma concentration (Wistar rats male, plasma; intravenous, 0.001 mg/kg, 15 min, 10 min after TF): < 2.9 ng/mL

Cc1cc(-c2ncc(CC(=O)Nc3ccc(-c4cnccn4)cn3)cc2C)ccn1
steady-state Cmax (patients, plasma; oral, dose not given, threshold for dysgeusia grade ≥2): < 118 ng/mL

CC(C)NC[C@@H](C(=O)N1CCN(c2ncnc3c2[C@H](C)C[C@H]3O)CC1)c1ccc(Cl)cc1
apparent clearance (human, Healthy hepatic function, plasma; oral, 100 mg single dose, NCI classification, geometric mean): 297 L/h

des-acyl ghrelin (human)
brain/serum ratio (mouse, Ghsr knockout, hippocampus; intravenous, 10 min): 8.25 µL/g

CC[C@H](C)[C@H](NC(=O)[C@H](Cc1ccccc1)NC(=O)[C@H](CCC(=O)O)NC(=O)[C@H](CCCCNC(=O)COCCOCCNC(=O)COCCOCCNC(=O)CC[C@H](NC(=O)CCCCCCCCCCCCCCCCC(=O)O)C(=O)O)NC(=O)[C@H](C)NC(=O)[C@H](C)NC(=O)[C@H](CCC(N)=O)NC(=O)CNC(=O)[C@H](CCC(=O)O)NC(=O)[C@H](CC(C)C)NC(=O)[C@H](Cc1ccc(O)cc1)NC(=O)[C@H](CO)NC(=O)[C@H](CO)NC(=O)[C@@H](NC(=O)[C@H](CC(=O)O)NC(=O)[C@H](CO)NC(=O)[C@@H](NC(=O)[C@H](Cc1ccccc1)NC(=O)[C@@H](NC(=O)CNC(=O)[C@H](CCC(=O)O)NC(=O)C(C)(C)NC(=O)[C@@H](N)Cc1cnc[nH]1)[C@@H](C)O)[C@@H](C)O)C(C)C)C(=O)N[C@@H](C)C(=O)N[C@@H](Cc1c[nH]c2ccccc12)C(=O)N[C@@H](CC(C)C)C(=O)N[C@H](C(=O)N[C@@H](CCCNC(=N)N)C(=O)NCC(=O)N[C@@H](CCCNC(=N)N)C(=O)NCC(=O)O)C(C)C
accumulation ratio (healthy Caucasian subjects, plasma; subcutaneous, once weekly; reference: 1.0 mg over 0.5 mg): 1

Nc1ccc(S(=O)(=O)Nc2ccnn2-c2ccccc2)cc1
inhibition (enzyme activity, inhibitor; human liver microsomes; 10 µM, with: rosiglitazone 10 µM): 42%

N=C(N)NC(=O)c1cnn(-c2cccc3ncccc23)c1C1CC1
CLint (CD-1 mouse male, hepatic S9; 1 µM, pH 7.4, with: without NADPH): 297 ± 16 mL/min/kg

O=C(CCc1ccccc1)c1cc(F)ccc1OCC(O)CN1CCC(c2ccccc2)CC1 (stereo not drawn)
scaled CLint (metabolic stability; human, liver microsomes; 20 µM, pH 7.4): 11.2 mL/min/kg

Oc1ccc(/C=C/c2cc(O)cc(O)c2)cc1
effective permeability (in situ intestinal perfusion; Sprague-Dawley rat, jejunum; 25 µg/mL, 120 min, pH 7.4): 9.4367 ± 0.00021 ×10⁻⁶ cm/s
